Measured values of several laboratories.
Each numbered part is a random draw from the data of one study; scales do not carry over between parts. Changes are numbered by the printed parent chain.

Block 1
Target: Histone acetyltransferase KAT6A, both winged helices, GST fusion (KAT6A, Homo sapiens, UniProt Q92794, residues 1-181)
Technique: protein binding microarray
Form: double-stranded DNA, one strand shown
Medium: in vitro
Concentration: not given
Setting: 8-mer, flanks averaged, mean of 2 arrays, mostly near background
Baseline: not given
Direction: higher = stronger binding
Quantity: E-score
Residues (chain): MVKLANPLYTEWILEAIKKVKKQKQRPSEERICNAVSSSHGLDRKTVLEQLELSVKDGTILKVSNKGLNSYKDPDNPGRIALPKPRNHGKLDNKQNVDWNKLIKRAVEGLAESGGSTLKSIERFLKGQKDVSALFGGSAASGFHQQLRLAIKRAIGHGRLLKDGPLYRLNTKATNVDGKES
CGCGTTAA: 0.274
ACAGTAAG: -0.13
CCCGGTAC: 0.0691
CGATAGGA: 0.0499
AGCACCGA: -0.0264
TACCCGCA: 0.236
CGTTATTC: 0.0226
AAATATCG: -0.0145
AACGGTCG: 0.175
GCAAGACC: -0.0113
ATTCGACA: -0.124
TAACGATA: -0.0311
ATATGTTG: -0.0385
CAAGACAA: -0.0575
CGCAATCC: 0.197
GATATTCA: -0.0653
TAGAGAAA: -0.124
AGAATGGG: -0.219
AGGCTCGG: -5e-06
TCCAATCA: -0.0234
CTGTGTCC: -0.0435
AGGATAAT: -0.189
GGCTGTAC: -0.00805
CCGAATGA: 0.162
CGGTGTTA: 0.161

Block 2
Target: CCNA2, cyclin fold, Cln2 fusion (human)
Technique: yeast growth competition, sequencing
Medium: yeast
Setting: weak parent motif
Baseline: not given
Direction: higher = stronger binding
Quantity: normalised enrichment score
Starting sequence: HIRA docking peptide (human); SLSKRKLELEVET
SLSKRKLALEVET [E8A]: 0.49
SLSARKLELEVET [K4A]: -0.0589
SLSKRKLELAVET [E10A]: -0.0652
SLSKRKLELEAET [V11A]: -0.115
SLSKAKAELEVET [R5A L7A]: 0.164
SLSKRKLEFEVET [L9F]: 4
SLSKRKLELEVAT [E12A]: 0.298
SLSKRKAELEVET [L7A]: 0.108
SLSKAKLELEVET [R5A]: -0.569
SLSKKKLELEVET [R5K]: 0.392

Block 3
Target: TAR DNA-binding protein 43, full length, His tag (TARDBP, Homo sapiens, UniProt Q13148, residues 1-414)
Technique: RNA Bind-n-Seq
Form: RNA
Medium: in vitro
Concentration: 20 nM
Setting: 6-mer, flanks averaged, single round
With: 150 mM LiCl
Baseline: input library
Direction: higher = stronger binding
Quantity: 6-mer enrichment (R)
GUGACC: 0.962
GGUCGA: 0.973
UUCCUC: 0.92
CCGGUG: 1.03
AGAGCA: 0.923
CUAAAC: 0.804
AGGUAC: 0.875
AGUUUA: 1
UGUCAA: 0.896
UAGAAC: 1.05
UCACAC: 0.857

Block 4
Target: RNA binding protein fox-1 homolog 2, RRM domain, GST-SBP tag (RBFOX2, Homo sapiens, UniProt O43251-10, residues 100-194)
Technique: RNA Bind-n-Seq
Form: RNA
Medium: in vitro
Concentration: 365 nM
Setting: natural RNA segment, single round, ends assumed
Baseline: no-protein control
Direction: higher = stronger binding
Quantity: RBNS enrichment (R)
All sequences stand within: GGGAGUUCUACAGUCCGACGAUC … UGGAAUUCUCGGGUGCCAA
Target sequence (chain): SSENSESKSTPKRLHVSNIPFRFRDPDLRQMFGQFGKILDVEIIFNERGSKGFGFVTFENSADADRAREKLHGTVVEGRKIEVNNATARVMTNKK
CAGGGGCCAUAUCUGUAUUAACUGGAUCAAGUAUAAGAAAAGCAAAGACUUCUCAGCUCUGACCUGCCUGCCUCCUUGGAAUUAGACUUGAACUUCUGAUCCUGCCUAUC: 0.73
UUUAUGAAUUUUAUAUUCCGUGAAUGUAUAUUGUCUUGUAAUGUUGCAUAGUGUUCACUUUUUAUAGCUGUCCUUUAUUCUAAACAGUAAAGUGGUUUUAUUUCUAUCAC: 1.2
CAAAAGAGCCUUUUUGUCUUUCUUUUUUAUUUUUUAAGUAUUGGAAUAAGUCUAAAGAAAAGAAAGUGCCUUAUUUUCCUUCAUGGUCAUUCAGUCAAGUGUCUCAUAAA: 0.631
CCCAGACUGGAAAUCCAUCACAUCCCAAGGCUCCUUGGCAGUCAUCUGUCUGUGUGGCUUGUUCUGUGGGCCUGAACUCCUAAGCACAGGUCGGGGGUAAAACUAGGAUG: 0.578
ACCUGUCACCAGCAGCCUGCGAGGGAAUGCGAGGUUGAUUGUCCCAGAGGCUCCCAACCCAUGCGCUACCAAAUACGCCUGGGCAGCCGGGCGGGCCAGCGGGCACCAGG: 0.231
AUGCUGAAUAUAAUGUGAAUAGCAAAAUCUGGUAUGUUGUGACUAAGGCUUAAGAGUGCCUGUUUCUGACAAUAAAAUGUUCCAAUAUUAAUGAACAGUGCCAAAUACAC: 0.766
CAAACAUAGUAUAUCCUUUAGUACUUUAACAUAUUUUUGUUAAAAUACUUUUAAUGGUAAGAAAUGAACUUGAGGUCCCAGGAGGUUUUGUUGCCUUUUCAUUGAUUAGA: 0.299
CUGGACAUGUUCUCUCGGCUGGCUUUCUGUUCCCCGCCUGCCUCCAGGAGGCCAGGGUGGUGGUGCUGCUAGGCCAUCCCAAUGUUAGGCUUGUGGGUGAUUCCCCGGGC: 0.255
UGCACUGUGGGUGGCACUAUUUAUUCCUGUGCGUCAUCUGGAAGCCUCACGGAUACAUCCAGCUAUGUGCUUGUCUGGUAGCCUUUGCGUUUAACAAACUAGCAUGAGGC: 0.381
GCAUGGAAAGGCAAUAUCUCUGGUGGAAAAAACUCGUCUACAUCGACCUCCGUUUGUACAUUCCAUCACACCCAGCAAUAGCUGUACAUUGUAGUCAGCAACCAUUUUAC: 3.04
ACCAGCCCCCUCGCCUGCCUGUGUCUCUCCCCAAACCCCUUUAGAUGGGGAGGGAAGAGGAGGAGAGGGGAGGGGACCUGCCCCCUCCUCAGGCAUCUGGGAGGGCCCUG: 0.278
ACCACCUGUGUGCCUGGUGUCUGUAGAAGCCAGCAGGAGGCUGUUAGAUCUCCUGGGCCGGGCGUUCCAAACAGUUGUGAGCUACUGUGUGAGUGCUAGGAGCAAACCUG: 0.302

Block 5
Target: RING finger protein unkempt homolog, zinc fingers 1-6, GST-SBP tag (UNK, Homo sapiens, UniProt Q9C0B0, residues 30-357)
Sequence of UniProt Q9C0B0 (30-357, looked up): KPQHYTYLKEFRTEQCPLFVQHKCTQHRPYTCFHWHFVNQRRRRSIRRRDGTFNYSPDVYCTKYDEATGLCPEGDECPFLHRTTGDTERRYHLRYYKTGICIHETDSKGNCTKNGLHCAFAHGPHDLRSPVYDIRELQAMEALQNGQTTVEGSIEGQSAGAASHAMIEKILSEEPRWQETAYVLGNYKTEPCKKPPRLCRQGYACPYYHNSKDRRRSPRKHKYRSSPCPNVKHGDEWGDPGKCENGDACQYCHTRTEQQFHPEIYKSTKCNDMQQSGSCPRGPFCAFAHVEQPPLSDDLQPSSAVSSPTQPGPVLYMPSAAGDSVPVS
Technique: RNA Bind-n-Seq
Form: RNA
Medium: in vitro
Concentration: not given
Setting: RNA with constant flanks, human-mouse chimeric sites, ends assumed
Baseline: input RNA pool
Direction: higher = stronger binding
Quantity: bound/input enrichment
All sequences stand within: GGGAGUUCUACAGUCCGACGAUC … CAACAGAGGAUUGAGCAUCA
CACAGAGGAGAUCUGCUGUUCCUCACGAAUUUCCGGGAGGACCCCAUCAGAGCUGGUGAAAUAGUUGUUUUUAAGGUUGAAGGACGAGACAUUCCAAUAGUUCACAGAGUAAUCAAGGUU: 2.62 ratio
CACGUGUCUGCAGUGCUUGAUGUGGACUACUCUCCCACUGGGAAGGAAUUUGUGUCUGCUAGUUUCGAUAAGUCUAUUAGAAUCUUUCCUGUGGACAAGAGCCGAAGCAGGGAAGUGUAU: 1.58 ratio
CAGCCUCAGAGCCCAGACUUCCUGGAUAUUACCAACCCUAAAGCGGUAUUAGAAAAUGCACUUAGGAACUUCGCCUGUCUGACCACCGGAGAUGUGAUUGCUAUCAACUACAAUGAGAAG: 0.681 ratio
ACUCUUGACUCUUUCCAUCCUCUUCCUUUCCCUCUUGAUAUUCAAGGCCAUGAAUCCCAAAAUAGCUGUCUUAGUGGCUAGCACCCAAACAGAGGUGGGUGCCAUCCACCCCAGUGUCUC: 0.677 ratio
ACCUCCCCCUCCCGCCUCACCCCACCCCCGCUUUUUGAAAGUGUGUUGGCGUUUCUUUUCCUUCCCCAUACAAAGUGAUUACAGUUUCCCCCGCAAGGGUCUAUCGAAGGGCUUGACGGA: 1.32 ratio
GAAUCCUACUCAGGCGGAUUUUGCAACACCAAGCUCACAGCAGCAGCAUCUUAGUCACAGUAGGGUAGCUUUAGGGCAAUAUUGCCAGGGUUUUAUUCACAUGCAGGUUUGGAAAAUGUA: 6.68 ratio
UUCCCAACCUCCCGCCUCACCCCACCCAAGAAAGAAAGAAAGUUUUUGGCGUUUCUUUUCCUUCCCCAUACAAAGUGAUUACAGUUUCCCCCGCAAGGGUCUAUCGAAGGGCUUGACGGA: 0.455 ratio
ACACAAUAUGAGACCAACAGCAUGGACUUCAAAGUUGGGGCAGAUGGGACAGUCUUCGCCACCCGGGAGCUGCAGGUCCCCUCCGAGCAGGUGGCCUUCACGGUGACUGCGCGGGAAAGC: 0.207 ratio
AGAGAUAAGACAUCCAGGAACAUGCGAGGCUCCCGGAUGAAUGGACUGCCUAGCCCCACUCACAGCGCCCACUGUAGCUUCUACCGAACCAGAACCUUGCAGGCACUGAGUAAUGAGAAG: 0.116 ratio
AGAGCCCAGGAUGUUGAUGCUACAAAUCCAAAUUACGAAAUUAUGUGUAUGAUCAGAGACUUUAGAGGGAGCUUGGAUUACAGACCCUUAACAACAGCAGAUCCUAUUGAUGAACAUAGG: 0.44 ratio
GAUCUCGGGCCCUCCCCAGGGGCCUCCUUUCGUAUAGUCACUGCUUCUGCAUCAGAUACUUUCAGCUGCAACUCCCUACUGGGUGGGGCACCCAUUUCAGGCAGAAGGUUUUGGUACCCU: 0.223 ratio

Block 6
Target: ABI1, truncated, D143A, DHFR fusion (Arabidopsis thaliana)
Technique: DHFR PCA, deep sequencing
Medium: yeast
Setting: methotrexate growth selection, single substitutions
With: (+)-ABA 710 µM
Baseline: wild-type fitted maximum
Direction: higher = stronger binding
Quantity: relative binding score
Starting sequence: PYL1, truncated, DHFR fusion (Arabidopsis thaliana); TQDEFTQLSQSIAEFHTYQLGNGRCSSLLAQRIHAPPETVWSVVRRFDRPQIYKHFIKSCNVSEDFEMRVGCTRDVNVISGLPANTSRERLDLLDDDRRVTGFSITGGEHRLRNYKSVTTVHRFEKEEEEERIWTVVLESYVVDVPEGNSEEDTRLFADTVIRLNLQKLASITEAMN; partner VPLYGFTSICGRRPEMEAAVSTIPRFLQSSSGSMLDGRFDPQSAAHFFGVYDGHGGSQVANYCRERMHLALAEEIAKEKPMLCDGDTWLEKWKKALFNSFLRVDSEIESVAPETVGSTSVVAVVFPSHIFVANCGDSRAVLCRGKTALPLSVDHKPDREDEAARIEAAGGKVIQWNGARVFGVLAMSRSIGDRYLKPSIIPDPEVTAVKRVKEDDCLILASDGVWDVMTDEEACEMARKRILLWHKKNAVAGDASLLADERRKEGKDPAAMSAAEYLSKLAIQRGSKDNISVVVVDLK
V62R: 79.5%
E64I: 93.2%
M176H: 100%
C25V: 106%
N177K: 97.7%
E89T: 17.5%
T39G: 91.6%
A35D: 5.05%
R49H: 101%
T17A: 93.4%
I57V: 103%
P146V: 81%
T1Y: 98%
S42I: 85.4%
E139Q: 96.5%
Q31M: 88.7%
Q167D: 91.7%
V137K: 1.77%

Single results of other studies
PhoQ, residues 284 288 289 292 302 303 SCKMEA  fold induction (PhoP, residues 12 14 15 18 19 NFCKL (Escherichia coli, UniProt P23836); Sort-seq, refers to: YFP reporter; E. coli; PhoQ-PhoP variant library, with: 10 µM Mg2+; baseline: high Mg2+ state, higher = stronger signaling): 2.42

A few entries again (block 3):
GUGACC: 0.962
GGUCGA: 0.973
UUCCUC: 0.92
CCGGUG: 1.03
AGAGCA: 0.923
CUAAAC: 0.804
AGGUAC: 0.875
AGUUUA: 1
UGUCAA: 0.896
UAGAAC: 1.05
UCACAC: 0.857
